Measurements from different studies.
Each line is one published result; not all experiments were run side by side. “And” joins repeats or separate records; there may be more than shown. Numbers after ± are the reported error.
MGLL: Monoglyceride lipase (MGLL, Homo sapiens, UniProt Q99685)
UniProt Q99685, sequence (whole entry, looked up): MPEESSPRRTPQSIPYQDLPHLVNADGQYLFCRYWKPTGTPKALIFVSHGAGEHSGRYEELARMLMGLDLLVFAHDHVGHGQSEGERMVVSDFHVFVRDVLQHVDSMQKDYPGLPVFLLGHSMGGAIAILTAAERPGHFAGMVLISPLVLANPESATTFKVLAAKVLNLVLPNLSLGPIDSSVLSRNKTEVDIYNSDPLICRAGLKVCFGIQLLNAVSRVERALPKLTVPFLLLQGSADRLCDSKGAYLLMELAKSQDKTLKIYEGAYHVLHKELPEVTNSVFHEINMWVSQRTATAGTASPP
Tpo: Thyroid peroxidase (Tpo, Rattus norvegicus, UniProt P14650)
UniProt P14650, sequence (whole entry, looked up): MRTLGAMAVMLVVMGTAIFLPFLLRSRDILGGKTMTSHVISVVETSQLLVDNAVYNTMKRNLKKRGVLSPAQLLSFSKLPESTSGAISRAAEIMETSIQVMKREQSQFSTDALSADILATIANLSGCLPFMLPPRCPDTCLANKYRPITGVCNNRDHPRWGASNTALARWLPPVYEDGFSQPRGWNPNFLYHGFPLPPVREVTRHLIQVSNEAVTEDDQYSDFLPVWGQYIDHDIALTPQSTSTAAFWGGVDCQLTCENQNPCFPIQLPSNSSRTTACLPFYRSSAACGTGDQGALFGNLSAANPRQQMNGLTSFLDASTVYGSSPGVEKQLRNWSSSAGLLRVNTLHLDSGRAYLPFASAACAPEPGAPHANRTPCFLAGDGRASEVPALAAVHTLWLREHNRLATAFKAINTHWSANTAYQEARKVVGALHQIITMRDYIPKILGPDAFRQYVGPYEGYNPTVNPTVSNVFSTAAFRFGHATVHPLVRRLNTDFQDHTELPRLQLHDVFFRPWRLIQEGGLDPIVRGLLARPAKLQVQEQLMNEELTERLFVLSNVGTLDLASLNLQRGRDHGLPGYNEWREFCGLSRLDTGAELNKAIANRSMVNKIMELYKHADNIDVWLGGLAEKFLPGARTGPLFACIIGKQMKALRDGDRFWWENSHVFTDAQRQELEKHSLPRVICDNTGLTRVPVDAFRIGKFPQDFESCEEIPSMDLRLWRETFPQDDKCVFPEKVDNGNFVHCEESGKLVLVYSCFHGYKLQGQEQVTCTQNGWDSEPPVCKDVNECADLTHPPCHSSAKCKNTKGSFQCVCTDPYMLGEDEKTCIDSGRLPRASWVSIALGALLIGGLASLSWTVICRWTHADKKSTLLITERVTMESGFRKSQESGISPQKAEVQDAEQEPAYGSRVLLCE
gag-pol integrase: Gag-Pol polyprotein, integrase (gag-pol, Human immunodeficiency virus 1, UniProt P12497)
Proteasome component C5/PSMB5: Proteasome component C5/PSMB5 (Homo sapiens, UniProt P20618+P28074)
UniProt P20618, sequence (whole entry, looked up): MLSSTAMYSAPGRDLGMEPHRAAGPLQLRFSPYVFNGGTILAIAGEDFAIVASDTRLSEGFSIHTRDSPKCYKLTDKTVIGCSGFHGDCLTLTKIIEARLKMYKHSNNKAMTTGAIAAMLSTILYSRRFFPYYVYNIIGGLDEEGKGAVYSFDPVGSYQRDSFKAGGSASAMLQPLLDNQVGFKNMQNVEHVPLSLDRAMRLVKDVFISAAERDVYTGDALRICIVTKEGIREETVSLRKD
UniProt P28074, sequence (whole entry, looked up): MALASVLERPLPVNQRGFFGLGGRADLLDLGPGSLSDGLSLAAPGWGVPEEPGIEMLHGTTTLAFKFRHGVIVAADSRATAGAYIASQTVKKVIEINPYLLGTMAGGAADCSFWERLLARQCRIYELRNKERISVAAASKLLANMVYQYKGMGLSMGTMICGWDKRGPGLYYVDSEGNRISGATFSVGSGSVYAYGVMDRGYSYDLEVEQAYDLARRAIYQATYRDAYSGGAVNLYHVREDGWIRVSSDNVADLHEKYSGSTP
EPHX2: Bifunctional epoxide hydrolase 2 (EPHX2, Homo sapiens, UniProt P34913)
UniProt P34913, sequence (whole entry, looked up): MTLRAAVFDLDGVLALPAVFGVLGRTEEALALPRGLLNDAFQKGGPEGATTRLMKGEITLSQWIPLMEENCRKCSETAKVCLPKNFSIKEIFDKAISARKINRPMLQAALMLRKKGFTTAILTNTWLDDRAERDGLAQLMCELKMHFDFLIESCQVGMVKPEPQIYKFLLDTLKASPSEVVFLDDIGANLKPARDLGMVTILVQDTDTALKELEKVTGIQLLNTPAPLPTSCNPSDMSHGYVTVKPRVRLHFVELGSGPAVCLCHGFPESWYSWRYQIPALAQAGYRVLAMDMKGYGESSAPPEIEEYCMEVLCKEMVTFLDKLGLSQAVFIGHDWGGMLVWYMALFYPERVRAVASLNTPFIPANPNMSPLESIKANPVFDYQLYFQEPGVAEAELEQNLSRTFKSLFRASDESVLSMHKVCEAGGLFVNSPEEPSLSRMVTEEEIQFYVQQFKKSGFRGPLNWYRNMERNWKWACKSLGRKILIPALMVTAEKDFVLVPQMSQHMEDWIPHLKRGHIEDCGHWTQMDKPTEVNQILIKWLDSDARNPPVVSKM
UniProt Q86UW1, sequence (whole entry, looked up): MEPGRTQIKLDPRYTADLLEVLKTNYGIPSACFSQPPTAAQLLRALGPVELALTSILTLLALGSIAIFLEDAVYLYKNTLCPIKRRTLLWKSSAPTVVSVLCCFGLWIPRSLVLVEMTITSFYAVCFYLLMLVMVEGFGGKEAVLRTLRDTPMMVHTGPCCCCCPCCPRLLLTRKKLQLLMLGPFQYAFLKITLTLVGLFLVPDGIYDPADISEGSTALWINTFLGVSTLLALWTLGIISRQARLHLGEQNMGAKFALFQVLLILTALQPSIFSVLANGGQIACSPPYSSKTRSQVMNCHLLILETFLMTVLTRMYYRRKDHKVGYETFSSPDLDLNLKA
UniProt Q9BRQ8, sequence (whole entry, looked up): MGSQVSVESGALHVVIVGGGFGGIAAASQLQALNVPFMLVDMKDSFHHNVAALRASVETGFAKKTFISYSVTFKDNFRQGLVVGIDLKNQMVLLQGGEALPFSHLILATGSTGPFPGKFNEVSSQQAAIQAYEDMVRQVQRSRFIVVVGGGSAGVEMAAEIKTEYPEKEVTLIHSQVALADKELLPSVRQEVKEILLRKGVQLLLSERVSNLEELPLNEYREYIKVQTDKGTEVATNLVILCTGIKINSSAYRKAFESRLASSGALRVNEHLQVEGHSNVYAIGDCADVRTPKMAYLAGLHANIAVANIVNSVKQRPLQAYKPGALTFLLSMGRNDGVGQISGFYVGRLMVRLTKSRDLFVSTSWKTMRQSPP
UniProt P48066, sequence (whole entry, looked up): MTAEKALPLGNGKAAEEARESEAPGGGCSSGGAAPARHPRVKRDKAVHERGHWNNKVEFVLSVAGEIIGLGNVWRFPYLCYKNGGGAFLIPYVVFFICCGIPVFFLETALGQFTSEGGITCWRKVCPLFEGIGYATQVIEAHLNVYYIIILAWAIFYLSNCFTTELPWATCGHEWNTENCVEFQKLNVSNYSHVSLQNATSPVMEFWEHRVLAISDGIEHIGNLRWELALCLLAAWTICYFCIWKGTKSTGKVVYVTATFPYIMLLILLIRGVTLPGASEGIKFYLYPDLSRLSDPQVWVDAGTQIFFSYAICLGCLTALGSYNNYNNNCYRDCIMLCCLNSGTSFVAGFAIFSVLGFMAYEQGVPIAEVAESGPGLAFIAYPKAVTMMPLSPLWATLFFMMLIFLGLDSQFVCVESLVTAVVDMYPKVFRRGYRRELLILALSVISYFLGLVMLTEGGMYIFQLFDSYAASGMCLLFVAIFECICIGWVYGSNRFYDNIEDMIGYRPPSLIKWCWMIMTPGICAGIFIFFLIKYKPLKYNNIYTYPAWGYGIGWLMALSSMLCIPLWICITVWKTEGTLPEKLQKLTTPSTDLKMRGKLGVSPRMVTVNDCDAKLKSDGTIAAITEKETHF
UniProt O54799, sequence (whole entry, looked up): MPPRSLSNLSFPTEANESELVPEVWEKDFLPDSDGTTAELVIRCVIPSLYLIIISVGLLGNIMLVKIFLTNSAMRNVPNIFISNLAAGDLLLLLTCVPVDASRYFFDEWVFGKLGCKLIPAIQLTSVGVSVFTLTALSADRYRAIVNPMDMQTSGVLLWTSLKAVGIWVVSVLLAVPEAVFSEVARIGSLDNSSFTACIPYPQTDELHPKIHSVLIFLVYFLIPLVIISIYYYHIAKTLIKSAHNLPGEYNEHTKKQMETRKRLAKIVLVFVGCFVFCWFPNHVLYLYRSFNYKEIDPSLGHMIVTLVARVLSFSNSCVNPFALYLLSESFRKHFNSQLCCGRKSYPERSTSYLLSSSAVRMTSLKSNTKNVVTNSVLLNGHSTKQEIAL

SMILES = Nc1nc(=O)[nH]cc1F; target = Bifunctional epoxide hydrolase 2, N-terminal phosphatase domain (EPHX2, Homo sapiens, UniProt P34913); assay = phosphatase activity, inhibitor; IC50 = > 100 µM
SMILES = O=C(OC(C(F)(F)F)C(F)(F)F)N1CCC(CCn2nnc3ccccc32)CC1; target = MGLL; assay = enzyme activity, inhibitor; IC50 = 0.19 µM
SMILES = CC[C@H](C)[C@H](NC(=O)[C@H](Cc1ccc(O)cc1)NC(=O)[C@@H](NC(=O)[C@H](CCCNC(=N)N)NC(=O)[C@@H](N)CC(=O)O)C(C)C)C(=O)N[C@@H](Cc1c[nH]cn1)C(=O)N1CCC[C@H]1C(=O)N[C@@H](Cc1ccccc1)C(=O)N[C@@H](Cc1c[nH]cn1)C(=O)O; target = Neurolysin, mitochondrial (Rattus norvegicus, UniProt P42676); assay = radioligand binding; system = rat, testis membranes; IC50 = 3.3 µM
SMILES = OC1CCCc2c(OCCOc3ccccc3)cccc21 (stereo not shown); target = MAOB (Homo sapiens, UniProt P27338); assay = enzyme activity, inhibitor, fluorescence; IC50 = 1.66 µM
SMILES = O=C(OC(C(F)(F)F)C(F)(F)F)N1CCC(CCn2ccc3cccc(F)c32)CC1; target = MGLL; assay = enzyme activity, inhibitor; IC50 = 0.46 µM
SMILES = COc1cc(CCC(=O)CC(=O)CCc2ccc(O)c(OC)c2)ccc1O; target = Tpo; assay = tyrosine iodination, LC-MS/MS; system = rat thyroid microsomes; conditions = added: KI 300 µM, H2O2 40 µM; IC50 = 1.55 µM
SMILES = O=C(ON1C(=O)c2ccccc2C1=O)N1CC(N2CCN(C(=O)c3nccs3)CC2)C1; target = Monoglyceride lipase (Rattus norvegicus, UniProt Q8R431); assay = enzyme activity, inhibitor; conditions = with preincubation; IC50 = > 1 µM
SMILES = CCc1c(Cl)c(O)c(Cl)c(O)c1C(=O)O[C@H]1[C@H](O)[C@H](OC)[C@H](OC/C2=C\C=C\C[C@H](O)/C(C)=C/[C@H](CC)[C@@H](O[C@@H]3OC(C)(C)[C@@H](OC(=O)C(C)C)[C@H](O)[C@@H]3O)/C(C)=C/C(C)=C/C[C@@H]([C@@H](C)O)OC2=O)O[C@@H]1C; target = Organic solute transporter subunit alpha, with OSTβ (SLC51A, Homo sapiens, UniProt Q86UW1); assay = DHEAS uptake, inhibitor; system = Flp-In 293 overexpressing OSTα/β; conditions = 30 s, added: DHEAS 4 µM; IC50 = 169 µM and < 200 µM
SMILES = CC(C)C[C@H](NC(=O)[C@H](Cc1ccc2ccccc2c1)NC(=O)[C@H](CCC(=O)O)NC(=O)c1cccc(C=O)c1)C(=O)NC1CC1c1ccccc1 (stereo partly shown); target = APC (Homo sapiens, UniProt P25054); assay = ligand displacement, FP; IC50 = 54.9 µM
SMILES = [Cl-].[Cl-].[Zn+2]; target = HVCN1 (Homo sapiens, UniProt Q96D96, D185A/H193A); assay = proton current, inhibitor, whole-cell voltage clamp; system = human cells; conditions = pH 6.5, test pulse 140 mV; IC50 = 135 µM
SMILES = C#CCOCCC(=O)NC(Cc1ccccc1)C(=O)NC(Cc1ccccc1)C(=O)NC(C=CC(=O)OCC)CC1CCNC1=O (stereo not shown); target = Replicase polyprotein 1ab, main protease (rep, Severe acute respiratory syndrome coronavirus 2, UniProt P0DTD1); assay = enzyme activity, inhibitor; IC50 = 0.8 µM
SMILES = CCOC(=O)/C(O)=C/C(=O)c1cn(Cc2ccc(F)cc2)c2ccc(F)cc2c1=O; target = gag-pol integrase; assay = 3'-processing, inhibitor, gel-based; conditions = added: Mg2+; IC50 = > 333 µM
SMILES = O=C(Nc1cccc(-c2nnc(C3CCCCC3)o2)c1)c1ccco1; target = α-amylase; assay = enzyme activity, inhibitor; IC50 = 6.21 µM
SMILES = O=C(O[C@@H]1Cc2c(O)cc(O)cc2O[C@@H]1c1cc(O)c(O)c(O)c1)c1cc(O)c(O)c(O)c1; target = Tpo; assay = enzyme activity, LC-MS/MS, measured: monoiodotyrosine; system = rat thyroid microsomes; conditions = added: L-tyrosine substrate; IC50 = 0.32 ± 0.06 µM
SMILES = COc1ccc(N2C(=O)/C(=C\c3ccc([N+](=O)[O-])s3)SC2=S)cc1; target = P4HB (Homo sapiens, UniProt P07237); assay = insulin reduction, inhibitor, turbidity; IC50 = 16.6 ± 0.8 µM
SMILES = C[C@@H](CC(=O)NCc1cccc2ccccc12)NC(=O)C[C@H](CC(=O)NC(C)(C)C)NC(=O)CCc1ccccc1; target = Proteasome component C5/PSMB5; assay = chymotrypsin-like activity, inhibitor; conditions = added: suc-LLVY-AMC; IC50 = > 100 µM
SMILES = O=C(O)/C(O)=C/C(=O)c1c[nH]c2cc(Cl)ccc2c1=O; target = gag-pol integrase; assay = 3'-processing, inhibitor, gel-based; conditions = added: Mg2+; IC50 = > 333 µM
SMILES = C[C@@H](CNCc1ccccc1)N1C[C@H](CCCNC(=N)N)N(CCc2cccc(F)c2)C1=S; target = NPY2R (Homo sapiens, UniProt P49146); assay = receptor activation, antagonist, FLIPR; IC50 = > 10 µM
SMILES = C=C(C)CCOP(=O)(O)OP(=O)(O)OP(=O)(O)OC[C@H]1O[C@@H](n2cnc3c(N)ncnc32)[C@H](O)[C@@H]1O; target = SGK3 (Homo sapiens, UniProt Q96BR1); assay = enzyme activity, inhibitor, HotSpot kinase; conditions = added: ATP 1 µM; IC50 = 2.4 µM
SMILES = CCCN(CCC)c1ccc(C=O)cc1; target = ALDH1A1 (Homo sapiens, UniProt P00352); assay = enzyme activity, inhibitor; conditions = pH 8.4; IC50 = 0.13 µM
SMILES = O=C(Nc1cc(C(F)(F)F)ccc1O)Nc1cc(C(F)(F)F)ccc1O; target = CACNA1I (Homo sapiens, UniProt Q9P0X4); assay = inhibitor, FLIPR calcium; system = HEK293 with GCaMP6s-CAAX, Kir2.3; conditions = added: KCl at EC90; IC50 = 39 µM
SMILES = Cc1ccc(Oc2cccc(CC(=O)N3CCNc4nc(C(F)(F)F)ccc4[C@H]3CC(=O)O)c2)cn1; target = Neuromedin-B receptor (Nmbr, Mus musculus, UniProt O54799); assay = radioligand binding; system = BALB cells expressing mouse NMBR; conditions = 60 min, 21 °C, added: 50 pM radioligand; IC50 = > 3 µM
SMILES = O=S(=O)(c1cc(C(=S)Nc2cc(F)c(F)c(F)c2)c(Cl)cc1Cl)N1CCOCC1; target = LPAR2 (Homo sapiens, UniProt Q9HBW0); assay = Ca2+ mobilization, antagonist; system = MEF; conditions = added: LPA at EC50; IC50 = > 100 µM
SMILES = C[C@]12C[C@@H]3C[C@](C)(C1)C[C@@](NC(=O)Nc1ccc(C(=O)N4CCC[C@H](C(=O)NCCCCCCC(=O)NO)C4)cc1F)(C3)C2; target = EPHX2; assay = enzyme activity, inhibitor, fluorescence; IC50 = 0.0003 µM
SMILES = O=C(COc1ccccc1Cl)Nc1cc(Br)ccc1C(=O)O; target = TRPM4 (Homo sapiens, UniProt Q8TD43); assay = ion flux, inhibitor, fluorescence; IC50 = 1 µM
SMILES = Cc1ccc(-c2cc(-c3ccc(F)cc3)nc(NC(=S)NC(=O)c3ccccc3)n2)cc1; target = Proteinase K (PROK, Engyodontium album, UniProt P06873); assay = enzyme activity, inhibitor, absorbance; conditions = pH 8; IC50 = 1.83 µM
SMILES = CC(C)Oc1ccc(-c2c[nH]cc2CN(C)CCO)cc1; target = PRMT8 (Homo sapiens, UniProt Q9NR22); assay = enzyme activity, scintillation proximity; conditions = added: 3H-SAM; IC50 = > 10 µM
SMILES = O=C(O)c1ccc(/C=C2\SC(=O)N(c3cccc(C(F)(F)F)c3)C2=O)cc1; target = CFTR (Homo sapiens, UniProt P13569); assay = ion current, inhibitor; IC50 = ~1 µM
SMILES = Cn1ccc2cc(NC(=O)Nc3cccnc3)ccc21; target = human MBNL1; assay = CUG repeat RNA binding, inhibitor, HTRF; conditions = added: biotin-(CUG)12 RNA; IC50 = 20 µM
SMILES = Cc1cn([C@H]2C[C@H](O)[C@@H](CO)O2)c(=O)[nH]c1=O; target = Nucleoside transporter 1 (Plasmodium vivax, UniProt A5K8B0); assay = [3H]uridine uptake, inhibitor; system = Nucleoside transporter 1-expressing yeast; conditions = added: 250 nM [3H]uridine; IC50 = 299 µM
SMILES = O=C(OC(C(F)(F)F)C(F)(F)F)N1CCC(Cn2cnc3ccccc32)CC1; target = MGLL; assay = enzyme activity, inhibitor; IC50 = 0.78 µM
SMILES = O=C(O)c1cc(Br)c2ccc(Br)cc2c1; target = Glutamate NMDA receptor; Grin1/Grin2c (Rattus norvegicus, UniProt P35439+Q00961); assay = ion current, two-electrode voltage clamp; conditions = oocytes; IC50 = 84.1 µM
SMILES = CCCCCCCCCC[N+](CC)(CC)CC; target = CNGA1 (Bos taurus, UniProt Q00194); assay = mean open time, blocker, single-channel recording; conditions = +70 mV, added: cGMP 2 mM; IC50 = 16 ± 4 µM
SMILES = CC12CC3CC(C)(C1)CC(Nc1c(Nc4ccc(C(=O)N5CCC[C@H](C(=O)NCCCCCCC(=O)NO)C5)cc4)c(=O)c1=O)(C3)C2; target = EPHX2; assay = enzyme activity, inhibitor, fluorescence; IC50 = 0.14 µM
SMILES = Cc1ccc(C(=O)Nc2cccc(-c3nnc(C4CCCCC4)o3)c2)cc1; target = α-amylase; assay = enzyme activity, inhibitor; IC50 = 5.93 µM
SMILES = O=C1C=C2CC3(O)COc4c(ccc(O)c4O)C3=C2C=C1O (stereo not shown); target = firefly luciferase; assay = luminescence signal, luminescence counter-screen; system = cell-free, after ADP processing; conditions = up to 77 µM, added: ADP 1.25 µM, ATP 11.25 µM; IC50 = no inhibition
SMILES = Cc1ccc(-c2c(C#N)c(N)n3c(nc4ccccc43)c2C#N)cc1; target = AIFM2 (Homo sapiens, UniProt Q9BRQ8); assay = enzyme activity, inhibitor, absorbance; IC50 = 4 µM
SMILES = Cc1ccc(CNC(=O)[C@H](CCc2ccccc2)NC(=O)[C@H](CCc2ccccc2)NC(=O)[C@H](CCc2ccccc2)NC(=O)c2cnc(C)cn2)cc1; target = Proteasome component C5/PSMB5; assay = inhibitor; IC50 = 0.016 µM
SMILES = CC[C@H](c1ccc(O)cc1)[C@@H](CC)c1ccc(O)cc1; target = Tpo; assay = tyrosine iodination, LC-MS/MS; system = rat thyroid microsomes; conditions = added: KI 300 µM, H2O2 40 µM; IC50 = 5.38 µM
SMILES = COc1ccc(C(/C=C/CN2CCC[C@@H]2[C@H](O)C(=O)O)(c2ccc(OC)cc2)c2ccc(OC)cc2)cc1; target = SLC6A11 (Homo sapiens, UniProt P48066); assay = GABA uptake, inhibitor; system = HEK-293T; conditions = 15 min preincubation; IC50 = 4.4 µM

Some of these lines once more:
SMILES = O=C(O)c1ccc(/C=C2\SC(=O)N(c3cccc(C(F)(F)F)c3)C2=O)cc1; target = CFTR (Homo sapiens, UniProt P13569); assay = ion current, inhibitor; IC50 = ~1 µM
SMILES = Cn1ccc2cc(NC(=O)Nc3cccnc3)ccc21; target = human MBNL1; assay = CUG repeat RNA binding, inhibitor, HTRF; conditions = added: biotin-(CUG)12 RNA; IC50 = 20 µM
SMILES = Cc1cn([C@H]2C[C@H](O)[C@@H](CO)O2)c(=O)[nH]c1=O; target = Nucleoside transporter 1 (Plasmodium vivax, UniProt A5K8B0); assay = [3H]uridine uptake, inhibitor; system = Nucleoside transporter 1-expressing yeast; conditions = added: 250 nM [3H]uridine; IC50 = 299 µM
SMILES = O=C(OC(C(F)(F)F)C(F)(F)F)N1CCC(Cn2cnc3ccccc32)CC1; target = MGLL; assay = enzyme activity, inhibitor; IC50 = 0.78 µM
SMILES = O=C(O)c1cc(Br)c2ccc(Br)cc2c1; target = Glutamate NMDA receptor; Grin1/Grin2c (Rattus norvegicus, UniProt P35439+Q00961); assay = ion current, two-electrode voltage clamp; conditions = oocytes; IC50 = 84.1 µM
SMILES = CCCCCCCCCC[N+](CC)(CC)CC; target = CNGA1 (Bos taurus, UniProt Q00194); assay = mean open time, blocker, single-channel recording; conditions = +70 mV, added: cGMP 2 mM; IC50 = 16 ± 4 µM
